Measurements gathered from unrelated publications.
Protocols differ between the studies behind these lines. Values joined by “and” are separate records of one study, mostly repeats; a detail may differ. ± gives the spread as reported. Converted amounts (≈) assume the structure as drawn.

O=C1[O][Pt]2([NH][C@@H]3CCCC[C@H]3[NH]2)[O]C1=O
resistance factor (LoVo resistant; MTT; reference: resistant over parental IC50): 18.3

N[C@@H](C[18F])C(=O)O
inhibition of cellular uptake (U-87 MG; concentration not given, together with: L-alanine 5 mM): 78%

CC1=C2C(=C[C@@](C)(CO)[C@@H]2O)C(=O)[C@](C)(O)C12CC2
LD20 (RPE-1 hTERT TP53-/- cells; cell viability): 1.4 ng/mL

Cc1ccccc1O
inhibition (THP-1; pyroptotic LDH release; 2 µM, 40 min, together with: LPS then nigericin): -3.02%

COc1cc(CCC[P+](c2ccccc2)(c2ccccc2)c2ccccc2)c(OC)c2c1OCO2.[I-]
GI50 (Malme-3M; SRB): -6.22 log M

CC(C)(O/N=C(\C(=O)N[C@@H]1C(=O)N2C(C(=O)[O-])=C(C[n+]3ccccc3)CS[C@H]12)c1csc(N)n1)C(=O)O
MIC (Escherichia coli DH5α expressing KPC-180; bacterial growth): 64 mg/L (≈ 117 µM)

Cc1cc(C(C)(C)c2ccc(O)c(C)c2)ccc1O
G1 phase cells (HepG2 spheroids; Hoechst flow cytometry; 10 µM, 96 h): 68 ± 11.6%

CCCC(=O)O[C@H]1C[C@H]2C[C@@H](O)C[C@@H](C[C@@H](C)/C=C/C=C\C[C@@H]3O[C@@H](C[C@@H]3C)[C@@H](O)C[C@@H]3OC(=O)[C@]1(O)[C@@H]3O)O2
basal oxygen consumption rate (NCI-H292; XF-24 extracellular flux; 1 µM): no effect

COc1ccc(C=O)cc1O
inhibition (THP-1; pyroptotic LDH release; 2 µM, 40 min, together with: LPS then nigericin): -5.84%

CC(CCc1ccccc1)NC(C)C(O)c1ccc(O)cc1 (stereo not shown)
viability (MDA-MB-231 BAX/BAK siRNA knockdown; CellTiter-Glo; concentration not given; reference: normalised luminescence): 44.1% and 53.9%

CC(C)N1CCC(NC2CCN(c3cccc(-c4cc5cc(F)ccc5[nH]4)c3)CC2)CC1
CC50 (ACHN): 6.03 µM

O=c1cc(-c2cccc3c2Sc2ccccc2S3)oc(N2CCOCC2)c1
maximum inhibition (human coronavirus OC43; virus-induced cell killing; MRC-5; maximum over 10 doses): 0%

O=c1cc(-c2ccc(O)cc2)oc2cc(O)cc(O)c12
GFP fluorescence (SH-SY5Y Aβ-GFP cells; Aβ folding; 1 to 5 µM; reference: untreated induced cells): 115 to 152%

Cn1cc2cc(C(F)(F)c3nnc4ccc(-c5cnn(C6CC6)c5)nn34)c(F)cc2n1
protein level (MKN-45; western blot, measured: CDK2, CDK4, CDK6, cyclin E1; concentration not given, 24 h): decreased

COc1ccc2c(c1)[nH]c1c(C)nccc12
methylation reduction (DU-145; bisulfite pyrosequencing, measured: RASSF1A promoter CpG site 7; concentration not given; reference: vehicle): 1.39%

COc1c(C)c2c(c(O)c1C/C=C(\C)CCC(=O)O)C(=O)OC2
IC50 (NCI-H358M; cell proliferation): 1.91 µM

Cc1cnc2ccc3c(nc(N)n3C)c2n1
colony number (BALB/c 3T3; colony forming efficiency; 1 µM): 91 colonies per plate and 100 colonies per plate

CC(C)(C#N)c1cc(Cn2cncn2)cc(C(C)(C)C#N)c1
maximum inhibition (human coronavirus OC43; virus-induced cell killing; MRC-5; maximum over 10 doses): 0%

Nc1ncnc2c1ncn2[C@@H]1O[C@@H]2COP(=O)(O)O[C@H]3[C@@H](O)[C@H](n4cnc5c(=O)[nH]cnc54)O[C@@H]3COP(=O)(O)O[C@H]2[C@H]1O
pathway fold enrichment (HFF-1; RNA sequencing Reactome analysis, measured: Reactome R-HSA-9704331 defective HRR (PALB2, BRCA1 binding); together with: West Nile virus infection; reference: West Nile virus infected cells, upregulated pathway): 7.67

CC[C@@H](C)[C@@H](NC(=O)[C@@H](Cc1c[nH]c2ccccc12)NC(=O)[C@@H](CCCNC(=N)N)NC(=O)[C@H](CCC(N)=O)NC(=O)[C@@H]1CCCN1C(=O)[C@H](CCCNC(=N)N)NC(=O)[C@H](CCCNC(=N)N)NC(=O)[C@H](CCCNC(=N)N)NC(=O)[C@H](CCC(N)=O)NC(=O)[C@H](CCCNC(=N)N)NC(=O)[C@H](CCCNC(=N)N)NC(=O)[C@H](CCCCN)NC(=O)[C@H](CCCCN)NC(=O)[C@H](CCCNC(=N)N)NC(=O)CN)C(=O)N[C@H](CCSC)C(=O)N[C@H](Cc1ccc(O)cc1)C(=O)N[C@H](Cc1ccccc1)C(N)=O
sublethal dose (SK-BR-3; MTT): 2 µM

COc1c(CCC[P+](c2ccccc2)(c2ccccc2)c2ccccc2)cc2c(c1OC)OCO2.[I-]
LC50 (KM12; SRB): -4.37 log M

CCCCCCCCCCCCCC1OC(=O)/C1=C\CCCCC(N)=O (stereo not shown)
lyso-PS level (mouse peritoneal macrophages ABHD16A knock-out; cellular and secreted lipids; 1 µM, 4 h, basal and LPS-stimulated): no effect

Cc1nn(-c2nc3ccc(Cl)c(Cl)c3[nH]2)c(O)c1C1OC(=O)c2ccccc21 (stereo not shown)
viability (RAW-ISG; CCK-8; 3 µM): 106% and 100% and 107% and 101% and 103%

COc1ccc2c(c1OC)CN1CCc3cc4c(cc3[C@@H]1C2)OCO4
maximal ROS response (HepaRG; ROS-Glo): -73.8 ± 51.4%

O=C1CCP(c2ccccc2)CC1
selectivity index (SW-620; MTT; 72 h; reference: IC50 HaCaT over IC50 SW-620): 1

Cn1nccc1Nc1nccc(-c2ccn([C@H](CO)c3ccc(Cl)c(F)c3)c(=O)c2)n1
PI-positive cells (HCT116; IncuCyte; concentration not given, 48 (unit not given)): 21.9 count and 23.8 count and 14.2 count

COC(=O)NC(=S)Nc1ccccc1NC(=S)NC(=O)OC
inhibition (THP-1; pyroptotic LDH release; 2 µM, 40 min, together with: LPS then nigericin): 2.3%

OC1CCN(c2ccc(/C=N/NC(=S)Nc3cccc(Cl)c3Cl)cc2)CC1
selectivity ratio (BEAS-2B and A549; MTT; reference: IC50 BEAS-2B over IC50 A549): 28.9

C[C@]12CC[C@H](O)C[C@H]1CC[C@@H]1[C@@H]2CC[C@]2(C)[C@@H](C3=CC(=O)OC3)[C@@H](O)C[C@]12O
MyBP-C level change (human iPSC cardiomyocytes; plate-normalised; concentration not given, hit retest; reference: vehicle controls, SDs below control): 10.9 SD

Nc1ncc(-c2nc(N3CCOCC3)nc(N3CCOCC3)n2)c(C(F)F)n1
GI50 (RT-4; 72 h): 0.305 µM

O=C1N(Cc2ccccc2Cl)c2ccccc2C12NN=C(c1ccccc1)S2 (stereo not shown)
fold change (MDA-MB-468; gene expression array, measured: HNRNPA2B1 mRNA; 10 µM, 12 h; reference: untreated, down): 1.61

CC1=C(O)C(=O)C=C2C1=CC=C1[C@@]2(C)CC[C@@]2(C)[C@@H]3C[C@](C)(C(=O)O)CC[C@]3(C)CC[C@]12C
MyBP-C level change (human iPSC cardiomyocytes; plate-normalised; concentration not given, hit retest; reference: vehicle controls, SDs below control): 14.2 SD

CC(C)(C)c1cc(C=C(C#N)C#N)cc(Br)c1O
phosphorylation (hCMEC/D3; outcome: decreased, Western blot, measured: Akt (Ser473); 100 µM, no insulin): decreased

Oc1ccc(C(c2ccc(O)cc2)(C(F)(F)F)C(F)(F)F)cc1
S phase cells (HepG2 spheroids; Hoechst flow cytometry; 1 µM, 24 h): 7.34 ± 1.52%

CCN(CC)c1ccc(C=NNC(=O)CSc2nc3ccccc3c(=O)n2Cc2ccc(S(N)(=O)=O)cc2)c(O)c1
CC50 (COLO 205; NCI five-dose screen): > 100 µM

CN1CCN(C2(CNC3CCN(c4cccc(-c5cc6cc(F)ccc6[nH]5)c4)CC3)CCC2)CC1
CC50 (TK-10): 6.4 µM

Oc1ccc(C2(c3ccc(O)cc3)c3ccccc3-c3ccccc32)cc1
S phase cells (HepG2 spheroids; Hoechst flow cytometry; 10 µM, 24 h): 7.81 ± 1.78%

Cn1cncc1C1=CN(c2ncnc3[nH]cnc23)CCS1
CC50 (KM12; colon cancer): > 200 µM

O=S(=O)(c1ccc(O)cc1)c1ccc(O)cc1
spheroid area increase (HepG2 spheroids; planimetry; 10 µM, 0 to 24 h; reference: mean area of 72 h spheroids): 153%

C/C=C(/C)C(=O)O[C@H]1C(C)=C2[C@H]([C@@H]1OC(=O)CCCCCCC)[C@@](C)(OC(C)=O)C[C@H](OC(=O)CCC)[C@@]1(O)[C@H]2OC(=O)[C@@]1(C)O
normalized enrichment score (HEK-293T; RNA-seq GSEA, measured: Hallmark IL2 STAT5 signaling; 500 nM, 6 h; direction not given): 1.48

Some of these lines once more:
Cc1cc(C(C)(C)c2ccc(O)c(C)c2)ccc1O
G1 phase cells (HepG2 spheroids; Hoechst flow cytometry; 10 µM, 96 h): 68 ± 11.6%

Cc1nn(-c2nc3ccc(Cl)c(Cl)c3[nH]2)c(O)c1C1OC(=O)c2ccccc21 (stereo not shown)
viability (RAW-ISG; CCK-8; 3 µM): 106% and 100% and 107% and 101% and 103%

COc1cc(CCC[P+](c2ccccc2)(c2ccccc2)c2ccccc2)c(OC)c2c1OCO2.[I-]
GI50 (Malme-3M; SRB): -6.22 log M

COc1c(C)c2c(c(O)c1C/C=C(\C)CCC(=O)O)C(=O)OC2
IC50 (NCI-H358M; cell proliferation): 1.91 µM

CC1=C2C(=C[C@@](C)(CO)[C@@H]2O)C(=O)[C@](C)(O)C12CC2
LD20 (RPE-1 hTERT TP53-/- cells; cell viability): 1.4 ng/mL

Cn1nccc1Nc1nccc(-c2ccn([C@H](CO)c3ccc(Cl)c(F)c3)c(=O)c2)n1
PI-positive cells (HCT116; IncuCyte; concentration not given, 48 (unit not given)): 21.9 count and 23.8 count and 14.2 count
